# Experimental data pooled from the literature.
# Each line is one published result; not all experiments were run side by side.
# DRD3: D(3) dopamine receptor (DRD3, Homo sapiens, UniProt P35462)
# UniProt P35462, sequence (whole entry, looked up): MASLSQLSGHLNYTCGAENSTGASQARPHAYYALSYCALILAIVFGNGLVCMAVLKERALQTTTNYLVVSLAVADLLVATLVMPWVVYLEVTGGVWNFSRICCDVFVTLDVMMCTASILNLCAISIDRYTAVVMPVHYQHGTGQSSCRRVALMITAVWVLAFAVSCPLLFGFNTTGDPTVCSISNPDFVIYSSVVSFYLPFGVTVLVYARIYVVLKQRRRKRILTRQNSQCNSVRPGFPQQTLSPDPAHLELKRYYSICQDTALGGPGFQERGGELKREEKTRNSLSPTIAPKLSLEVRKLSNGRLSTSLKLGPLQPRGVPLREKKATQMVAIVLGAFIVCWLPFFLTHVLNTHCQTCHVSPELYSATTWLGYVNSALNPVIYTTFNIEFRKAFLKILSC
# CTSL: Procathepsin L (CTSL, Homo sapiens, UniProt P07711)
# UniProt P07711, sequence (whole entry, looked up): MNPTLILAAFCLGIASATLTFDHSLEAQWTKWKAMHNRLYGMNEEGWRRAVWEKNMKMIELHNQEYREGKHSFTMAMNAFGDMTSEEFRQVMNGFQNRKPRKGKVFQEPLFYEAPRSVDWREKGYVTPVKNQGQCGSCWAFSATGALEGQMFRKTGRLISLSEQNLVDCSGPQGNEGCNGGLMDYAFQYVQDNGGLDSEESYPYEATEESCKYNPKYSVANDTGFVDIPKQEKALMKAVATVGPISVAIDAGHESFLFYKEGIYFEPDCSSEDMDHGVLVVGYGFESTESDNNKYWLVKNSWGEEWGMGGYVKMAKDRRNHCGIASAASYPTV
# UniProt Q969F8, sequence (whole entry, unmodified, looked up): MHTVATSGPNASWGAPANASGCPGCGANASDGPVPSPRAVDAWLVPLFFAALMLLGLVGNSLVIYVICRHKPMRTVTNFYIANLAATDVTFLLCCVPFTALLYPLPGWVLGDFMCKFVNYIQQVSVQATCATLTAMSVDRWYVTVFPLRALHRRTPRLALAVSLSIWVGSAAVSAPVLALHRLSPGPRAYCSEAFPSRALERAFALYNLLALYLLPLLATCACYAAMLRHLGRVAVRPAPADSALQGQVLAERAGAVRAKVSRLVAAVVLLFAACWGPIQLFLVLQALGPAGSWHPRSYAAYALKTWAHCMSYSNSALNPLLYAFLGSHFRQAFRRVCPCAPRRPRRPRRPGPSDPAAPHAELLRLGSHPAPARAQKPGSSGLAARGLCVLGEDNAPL
# UniProt Q9H2G2, sequence (whole entry, looked up): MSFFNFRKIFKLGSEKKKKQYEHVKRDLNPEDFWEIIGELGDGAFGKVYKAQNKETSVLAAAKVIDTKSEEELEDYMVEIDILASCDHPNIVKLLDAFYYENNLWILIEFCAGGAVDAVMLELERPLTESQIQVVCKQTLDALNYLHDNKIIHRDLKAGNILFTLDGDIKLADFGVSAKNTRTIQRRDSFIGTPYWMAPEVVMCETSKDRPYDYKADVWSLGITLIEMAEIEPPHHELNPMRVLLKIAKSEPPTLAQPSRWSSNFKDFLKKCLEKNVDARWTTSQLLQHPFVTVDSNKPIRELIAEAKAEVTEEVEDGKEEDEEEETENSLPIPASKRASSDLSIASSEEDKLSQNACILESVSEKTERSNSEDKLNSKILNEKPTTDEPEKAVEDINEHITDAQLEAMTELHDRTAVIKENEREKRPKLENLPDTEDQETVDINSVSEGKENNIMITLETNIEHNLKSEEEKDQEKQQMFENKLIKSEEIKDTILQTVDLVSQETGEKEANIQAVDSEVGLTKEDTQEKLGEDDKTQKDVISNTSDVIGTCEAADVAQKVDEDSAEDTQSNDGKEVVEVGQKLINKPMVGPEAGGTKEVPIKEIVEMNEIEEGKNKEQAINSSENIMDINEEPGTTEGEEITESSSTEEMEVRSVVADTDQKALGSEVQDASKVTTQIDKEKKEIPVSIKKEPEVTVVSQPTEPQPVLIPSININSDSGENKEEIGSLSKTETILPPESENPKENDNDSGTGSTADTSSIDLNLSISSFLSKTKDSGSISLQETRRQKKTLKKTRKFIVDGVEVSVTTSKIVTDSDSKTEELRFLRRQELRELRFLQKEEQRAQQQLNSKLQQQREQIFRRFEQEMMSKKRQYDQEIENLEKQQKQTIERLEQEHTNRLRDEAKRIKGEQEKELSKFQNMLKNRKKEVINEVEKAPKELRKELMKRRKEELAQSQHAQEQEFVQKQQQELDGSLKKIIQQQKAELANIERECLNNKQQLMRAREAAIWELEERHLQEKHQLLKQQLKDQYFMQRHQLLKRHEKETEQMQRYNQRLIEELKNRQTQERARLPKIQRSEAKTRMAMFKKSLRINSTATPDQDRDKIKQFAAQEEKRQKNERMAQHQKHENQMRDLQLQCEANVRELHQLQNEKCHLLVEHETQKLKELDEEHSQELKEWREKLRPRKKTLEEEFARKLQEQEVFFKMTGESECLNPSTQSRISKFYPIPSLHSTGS
# UniProt Q9NYY3, sequence (whole entry, looked up): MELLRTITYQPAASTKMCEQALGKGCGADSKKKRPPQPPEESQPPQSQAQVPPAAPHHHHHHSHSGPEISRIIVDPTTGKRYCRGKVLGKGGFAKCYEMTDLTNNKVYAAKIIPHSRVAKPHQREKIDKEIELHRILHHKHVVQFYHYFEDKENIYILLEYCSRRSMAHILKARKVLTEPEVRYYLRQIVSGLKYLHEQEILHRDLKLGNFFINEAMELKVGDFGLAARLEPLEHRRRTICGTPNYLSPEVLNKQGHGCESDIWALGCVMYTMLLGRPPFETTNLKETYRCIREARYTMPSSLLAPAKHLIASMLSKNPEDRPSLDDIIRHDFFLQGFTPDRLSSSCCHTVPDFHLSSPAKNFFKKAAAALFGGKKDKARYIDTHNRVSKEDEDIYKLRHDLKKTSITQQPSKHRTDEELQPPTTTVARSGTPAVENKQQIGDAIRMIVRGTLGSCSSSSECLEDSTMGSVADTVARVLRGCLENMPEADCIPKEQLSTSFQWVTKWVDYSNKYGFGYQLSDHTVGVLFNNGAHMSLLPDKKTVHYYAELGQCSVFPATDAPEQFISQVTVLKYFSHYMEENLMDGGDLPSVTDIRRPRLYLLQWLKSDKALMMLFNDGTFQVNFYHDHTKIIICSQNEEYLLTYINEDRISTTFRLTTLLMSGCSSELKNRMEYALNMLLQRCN
# UniProt P52333, sequence (whole entry, looked up): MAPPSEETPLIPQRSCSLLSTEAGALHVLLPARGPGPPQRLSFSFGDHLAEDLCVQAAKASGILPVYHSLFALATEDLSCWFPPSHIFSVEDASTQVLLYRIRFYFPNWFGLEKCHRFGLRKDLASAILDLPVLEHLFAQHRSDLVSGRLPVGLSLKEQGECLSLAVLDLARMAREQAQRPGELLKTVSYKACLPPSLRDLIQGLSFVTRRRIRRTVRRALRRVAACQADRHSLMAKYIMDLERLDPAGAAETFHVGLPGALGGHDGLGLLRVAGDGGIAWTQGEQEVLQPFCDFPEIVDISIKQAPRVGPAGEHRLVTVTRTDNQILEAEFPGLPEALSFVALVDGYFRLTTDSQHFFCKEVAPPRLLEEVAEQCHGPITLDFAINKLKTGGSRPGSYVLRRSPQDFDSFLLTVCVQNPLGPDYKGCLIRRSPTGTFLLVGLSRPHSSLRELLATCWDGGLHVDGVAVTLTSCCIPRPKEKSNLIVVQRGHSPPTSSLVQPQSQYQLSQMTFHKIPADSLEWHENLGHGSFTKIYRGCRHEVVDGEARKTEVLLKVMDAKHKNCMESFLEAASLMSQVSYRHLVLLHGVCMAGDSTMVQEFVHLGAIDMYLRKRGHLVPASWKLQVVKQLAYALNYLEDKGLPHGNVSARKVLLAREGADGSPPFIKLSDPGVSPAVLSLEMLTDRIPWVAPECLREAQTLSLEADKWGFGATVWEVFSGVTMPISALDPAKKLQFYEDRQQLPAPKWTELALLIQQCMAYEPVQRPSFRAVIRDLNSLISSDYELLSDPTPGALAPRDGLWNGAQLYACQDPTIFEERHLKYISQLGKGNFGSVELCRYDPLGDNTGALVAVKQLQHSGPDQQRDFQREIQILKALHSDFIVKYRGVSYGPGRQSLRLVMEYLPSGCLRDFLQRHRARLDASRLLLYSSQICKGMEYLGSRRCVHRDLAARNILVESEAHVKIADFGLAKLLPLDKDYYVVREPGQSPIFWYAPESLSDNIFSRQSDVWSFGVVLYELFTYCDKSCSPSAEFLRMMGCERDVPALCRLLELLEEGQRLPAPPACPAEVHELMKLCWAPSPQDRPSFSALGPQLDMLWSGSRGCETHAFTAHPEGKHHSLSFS
# UniProt Q8N5S9, sequence (whole entry, looked up): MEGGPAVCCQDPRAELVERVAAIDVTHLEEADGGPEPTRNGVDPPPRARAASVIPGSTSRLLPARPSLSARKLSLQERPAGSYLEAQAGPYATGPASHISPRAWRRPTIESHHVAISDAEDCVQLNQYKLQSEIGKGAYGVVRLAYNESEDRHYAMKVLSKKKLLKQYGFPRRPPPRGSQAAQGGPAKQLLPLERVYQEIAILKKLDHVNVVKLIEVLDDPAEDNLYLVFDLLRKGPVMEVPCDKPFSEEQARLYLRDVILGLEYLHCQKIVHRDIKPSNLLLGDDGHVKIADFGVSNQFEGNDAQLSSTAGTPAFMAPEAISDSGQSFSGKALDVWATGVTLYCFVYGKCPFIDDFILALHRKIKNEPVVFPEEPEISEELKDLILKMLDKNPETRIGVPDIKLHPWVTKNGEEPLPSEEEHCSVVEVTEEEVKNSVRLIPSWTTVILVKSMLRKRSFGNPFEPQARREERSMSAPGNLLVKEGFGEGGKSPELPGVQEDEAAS
Compound,target,assay,test system,conditions,measurement,result
C=CC(=O)N1CCC(COCC(=O)N2CCN(c3nc(-c4cnc(N)nc4C(F)F)nc(N4CCOC[C@@H]4C)n3)CC2)CC1,"SLK (Homo sapiens, UniProt Q9H2G2)","binding, competition with immobilised ligand",,1 µM,remaining binding,82%
CC[C@H](C)[C@H](NC(=O)[C@H](CCC(N)=O)NC(=O)[C@H](CCCNC(=N)N)NC(=O)[C@H](CO)NC(=O)[C@H](Cc1c[nH]cn1)NC(=O)[C@@H]1CCCN1C(=O)[C@H](C)NC(=O)[C@H](CO)NC(=O)[C@H](CC(C)C)NC(=O)CNC(=O)[C@@H]1CCCN1C(=O)[C@H](CCC(N)=O)NC(=O)[C@H](CCC(N)=O)NC(=O)[C@H](CCCNC(=N)N)NC(=O)[C@H](CO)NC(=O)CNC(=O)[C@H](CO)NC(=O)[C@H](CO)NC(=O)[C@H](CCC(=O)O)NC(=O)[C@@H]1CCCN1C(=O)[C@@H]1CCCN1C(=O)[C@@H]1CCCN1C(=O)[C@H](CO)NC(=O)[C@H](CC(C)C)NC(=O)[C@H](CO)NC(=O)[C@@H](NC(=O)CN)[C@@H](C)O)C(=O)N1CCC[C@H]1C(=O)N[C@@H](C)C(=O)N1CCC[C@H]1C(=O)N[C@@H](CCC(N)=O)C(=O)NCC(=O)N[C@@H](C)C(=O)N[C@H](C(=O)N[C@@H](CC(C)C)C(=O)N[C@H](C(=O)N[C@@H](CCC(N)=O)C(=O)N[C@@H](CCCNC(=N)N)C(=O)N[C@@H](CCC(=O)O)C(=O)N[C@@H](CCCCN)C(=O)N[C@@H](CC(=O)O)C(=O)N[C@@H](CC(C)C)C(=O)N1CCC[C@H]1C(=O)N[C@@H](CC(N)=O)C(=O)N[C@@H](Cc1ccc(O)cc1)C(=O)N[C@@H](CC(N)=O)C(=O)N[C@@H](Cc1c[nH]c2ccccc12)C(=O)N[C@@H](CC(N)=O)C(=O)N[C@@H](CO)C(=O)N[C@@H](Cc1ccccc1)C(=O)NCC(=O)N[C@@H](CC(C)C)C(=O)N[C@@H](CCCNC(=N)N)C(=O)N[C@@H](Cc1ccccc1)C(N)=O)C(C)C)C(C)C,"KiSS-1 receptor (KISS1R, Homo sapiens, UniProt Q969F8, Q123A)","inositol phosphate, agonist",HEK293,,Emax,96.4%
Cc1[nH]c(C)c(S(=O)(=O)Nc2ccc(C(F)(F)F)c(Cl)c2)c1C(=O)N1CCC(=O)C1,DRD3,"β-arrestin recruitment, agonist",,90 min,Emax,97%
O=C1CSC(=S)N1NC(=S)SSC(=S)NN1C(=O)CSC1=S,"PTPN22 (Homo sapiens, UniProt Q9Y2R2)","enzyme activity, inhibitor, fluorescence",,,kinact,0.004 s⁻¹
O=C1Nc2ccccc2C1=O,CTSL,"enzyme activity, inhibitor",,100 µM,remaining activity,103%
Cc1cc([C@@H](C)Nc2ccccc2C(=O)O)c2nc(N3CCC(F)(F)CC3)c(C#N)c(=O)n2c1,"Tyrosine-protein kinase JAK3, JH1 (JAK3, Homo sapiens, UniProt P52333)","binding, competition with immobilised ligand",,10 µM,remaining binding,100%
O=c1c(O)c(-c2cc(O)c(O)c(O)c2)oc2cc(O)ccc12,CTSL,"enzyme activity, inhibitor",,100 µM,remaining activity,108%
CNc1ncc2c(/C=C/C(=O)N3CCC(OC)CC3)nn(Cc3cccc(C(F)(F)F)c3)c2n1,"CAMKK1 (Homo sapiens, UniProt Q8N5S9)","enzyme activity, inhibitor, radiometric",,1 µM,remaining activity,107%
Nc1ncnc2occ(-c3ccc(NC(=O)Nc4cc(C(F)(F)F)ccc4F)cc3)c12,"Tyrosine-protein kinase ABL1, phosphorylated (ABL1, Homo sapiens, UniProt P00519, H396P)","cell-free assay, inhibitor",,20 µM,remaining signal,0.4%
Cc1ccc(C=O)c(O)c1,CTSL,"enzyme activity, inhibitor",,100 µM,remaining activity,151%
COc1cc(-c2cncc3c2CN(C)Cc2cc(N4CCNCC4)ccc2-3)cc(OC)c1OC,"TNIK (Homo sapiens, UniProt Q9UKE5)","enzyme activity, inhibitor",,1 µM,remaining activity,40%
COc1ccc(/C=C/C(=O)c2c(O)cc(OC3OC(COC4OC(C)C(O)C(O)C4O)C(O)C(O)C3O)cc2OC)cc1O (stereo not shown),CTSL,"enzyme activity, inhibitor",,100 µM,remaining activity,89.8%
COc1ccc2oc(-c3ccc4nc(N)oc4c3)c/c(=N\c3ccccc3NC(=O)CCN)c2c1,"EGFR (Homo sapiens, UniProt P00533, L861Q)",cell-free assay,,1 µM,remaining signal,96%
C1=C/COCc2cc(ccc2OCCN2CCCC2)Nc2nccc(n2)-c2cccc(c2)COC/1,"PLK2 (Homo sapiens, UniProt Q9NYY3)",cell-free assay,,0.1 µM,remaining signal,96%
Cc1[nH]c(C)c(S(=O)(=O)Nc2ccc(C(F)(F)F)c(Cl)c2)c1C(=O)NCC(F)F,DRD3,"β-arrestin recruitment, agonist",,90 min,Emax,94%
CCCCC(=O)Nc1ccc(-c2ccc3ncn(CCC)c(=O)c3c2)cn1,"FGFR3 (Homo sapiens, UniProt P22607, G697C)","binding, competition with immobilised ligand",,0.5 µM,remaining binding,88%
